Results collected from several papers.
Every numbered part comes from another study and shows a few of its results, in no order.

Block 1
Target: Replicase polyprotein 1ab, main protease (rep, Severe acute respiratory syndrome coronavirus 2, UniProt P0DTD1)
Observed: enzyme activity
Mode: inhibitor
Concentration: 20 µM
Notes: primary screen
SMILES	inhibition [%]
CCO[C@@H](Cc1ccc(OCCn2c(C)ccc2-c2ccc(SC)cc2)cc1)C(=O)O	29.4
COc1ccc([N+](=O)[O-])c(S(=O)(=O)c2ccc(Cl)cc2)n1	58.4
O=c1c(O)cccc2cc(O)c(O)c(O)c12	101

Block 2
Target: Histone acetyltransferase KAT6A, both winged helices, GST fusion (KAT6A, Homo sapiens, UniProt Q92794, residues 1-181)
Method: protein binding microarray
Form: double-stranded DNA, one strand shown
Matrix: in vitro
Concentration: not given
Notes: 8-mer, flanks averaged, mean of 2 arrays, mostly near background
Baseline: not given
Reading: higher = stronger binding
Residues (chain): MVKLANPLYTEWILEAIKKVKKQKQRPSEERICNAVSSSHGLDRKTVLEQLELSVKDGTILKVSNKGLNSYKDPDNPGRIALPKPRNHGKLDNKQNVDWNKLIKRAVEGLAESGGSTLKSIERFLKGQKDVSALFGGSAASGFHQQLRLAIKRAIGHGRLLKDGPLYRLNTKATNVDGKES
Oligonucleotide	E-score
CATGGTCG	0.0879
CCAACCAA	-0.117
AACCCAGT	-0.152
ATGGGTAA	-0.152
GCGAGGTA	0.0825
CGATGGAA	0.0225
GTAATTCA	-0.0194
GGAGCGAC	0.1

Block 3
Cell line: HEK-293T/ACE2
Concentration: concentration not given
Time: 16 (unit not given)
Baseline: vehicle
Compound	viability
CCCCC(=O)O[C@H]1CC[C@H]2[C@@H]3CCc4cc(O)ccc4[C@H]3CC[C@]12C	104%
Cc1cc(/C=C/C#N)cc(C)c1Nc1ccnc(Nc2ccc(C#N)cc2)n1	54.2%
Cc1cc(-c2ccc(/N=N/c3ccc4c(S(=O)(=O)O)cc(S(=O)(=O)O)c(N)c4c3O)c(C)c2)ccc1/N=N/c1ccc2c(S(=O)(=O)O)cc(S(=O)(=O)O)c(N)c2c1O	101%

Block 4
Target: Protein C-ets-1 (ETS1, Homo sapiens, UniProt P14921, residues 1-441, Y397A, full length assumed)
Chain of UniProt P14921 (whole entry, unmodified, looked up): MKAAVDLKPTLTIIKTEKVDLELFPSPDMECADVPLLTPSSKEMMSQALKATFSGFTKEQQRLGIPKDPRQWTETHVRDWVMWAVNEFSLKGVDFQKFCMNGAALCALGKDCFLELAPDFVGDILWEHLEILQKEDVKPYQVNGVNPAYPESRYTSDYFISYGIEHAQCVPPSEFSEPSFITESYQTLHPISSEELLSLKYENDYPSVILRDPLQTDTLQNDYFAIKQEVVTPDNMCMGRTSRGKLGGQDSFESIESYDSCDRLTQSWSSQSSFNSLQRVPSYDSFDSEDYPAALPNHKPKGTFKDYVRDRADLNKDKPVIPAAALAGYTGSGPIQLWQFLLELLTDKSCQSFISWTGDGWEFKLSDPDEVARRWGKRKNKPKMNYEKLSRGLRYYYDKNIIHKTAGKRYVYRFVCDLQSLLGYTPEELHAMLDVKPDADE
Method: protein-binding microarray
Form: double-stranded DNA, one strand shown
Matrix: in vitro
Concentration: not given
Notes: k-mer, scored over probes, only values ≥0.25
Reading: higher = stronger binding
Oligonucleotide	E-score
ACACACCA	0.325
GTGCAAAC	0.28
ACGGAAAT	0.315
GCAATACA	0.275

Block 5
Target: RNA binding protein fox-1 homolog 2, RRM domain, GST-SBP tag (RBFOX2, Homo sapiens, UniProt O43251-10, residues 100-194)
Method: RNA Bind-n-Seq
Form: RNA
Matrix: in vitro
Concentration: 365 nM
Notes: natural RNA segment, single round, ends assumed
Baseline: no-protein control
Reading: higher = stronger binding
Target sequence (chain): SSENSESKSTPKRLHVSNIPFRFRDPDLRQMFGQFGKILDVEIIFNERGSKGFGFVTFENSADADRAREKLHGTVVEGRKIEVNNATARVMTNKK
Oligonucleotide	RBNS enrichment (R)
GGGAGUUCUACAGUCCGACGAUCUCCUUGGAACCAUCUCUGAAUUCUGAAUAGCUGACAACCCCCAAUGUUAUCCACUCUGUUGCUUUUGUCUGGAAAACUCUACAGUGUUUGUGGGAUGUCCCCAAAGGAAAUGGAAUUCUCGGGUGCCAA	0.385
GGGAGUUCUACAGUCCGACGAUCGAAAUGCAUCCAUUCCUCAGGGACAGAGACACCUGCACCUCCCCCCACUGCAGGCCCCGCUUGUCCAGCGCCUAGUGGGGUCUCCCUCUCCUGCCUACUCACGAUAAAUAUGGAAUUCUCGGGUGCCAA	6.41
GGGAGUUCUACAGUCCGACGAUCCUUCCUGAAUGUUUGUGUGUGAACCCUUGUUUCCUCCAAAACAAACGACAGCAACGAAAACUCCUUAAUCAGAACACUGAUCCAAUGAGGAAUGGAGCUUGUUUCUGUGAUGGAAUUCUCGGGUGCCAA	0.586
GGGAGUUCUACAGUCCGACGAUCACUGGACCUGCCCCACCCUCAGAUUCCUUAAAGGAUGAAGAGUGUGCUGUACACUCAGCAUAUGUGCCUCUUGUAUGCAAGGACUACUGAUUGAAGUCUGUUUUGCUGUGUGGAAUUCUCGGGUGCCAA	0.34
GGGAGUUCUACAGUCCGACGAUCCUGUUUUUGUUGAAUCGAGUUCUCAAAUCGGUUUAGACCAAAGCCAUUCUUCUGACCCUCUAGAUAAGCGUAGCCUACAACCCAGUGCCGUAAGUUUCCAAGAUUCAAGAUGGAAUUCUCGGGUGCCAA	0.228
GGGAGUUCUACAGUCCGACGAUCCAAUGUUGUGUAUAAAUGGGACACUUUGCCCUCUACCACCUCCCCUUUGGUUGUAUGAUUUUCUUCUUUUUUAAUGACUCCUGGAAGCAGUGCCCCUUCAGAGCUGGCUGUGGAAUUCUCGGGUGCCAA	0.587
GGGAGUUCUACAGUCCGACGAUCAAUUCAUGUCUAAAUCACUGGGGUUGAGACUCCUUCAGCCUCCCUGGUUGAUUAGAGAUUCUGAGAAGCAGUAGAGCUGGCUGGGAGGUGGGCUACAGAGGAGCAAGCAAUGGAAUUCUCGGGUGCCAA	4.73
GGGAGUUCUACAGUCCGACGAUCGAGUGAAACAUUUUCCAAGGCCUUAUUUCUUUUUCAGAAUGCUUUAAGUGUUGAUUAUAUGUGCUGGGUCUCUAGAGAAGUUUUUAUUUGUUACAAUACUGCUGCUUUGAUGGAAUUCUCGGGUGCCAA	1.23

Block 6
Target: Replicase polyprotein 1ab, polymerase (rep, Severe acute respiratory syndrome coronavirus 2, UniProt P0DTD1)
Observed: enzyme activity
Mode: inhibitor
Concentration: 20 µM
SMILES	inhibition
CS(=O)(=O)c1ccc(-c2cc(Br)sc2-c2ccc(F)cc2)cc1	-0.45%
CC(C)C[C@@H](N)C(=O)N[C@H]1C(=O)N[C@@H](CC(N)=O)C(=O)N[C@H]2C(=O)N[C@H]3C(=O)N[C@H](C(=O)N[C@H](C(=O)O)c4cc(O)cc(O)c4-c4cc3ccc4O)[C@H](O)c3ccc(c(Cl)c3)Oc3cc2cc(c3O[C@@H]2O[C@H](CO)[C@@H](O)[C@H](O)[C@H]2O[C@H]2C[C@](C)(N)[C@H](O)[C@H](C)O2)Oc2ccc(cc2Cl)[C@H]1O	0.38%
CC(C)c1ccc(C(=O)N=C(N)N)cc1S(C)(=O)=O	-0.79%
OC[C@@H](O)CN1CCN(c2ccccc2)CC1	-2.11%
Cc1c(I)c(=O)n(-c2ccccc2)n1C	3.25%
C#C[C@]1(OC(C)=O)CC[C@H]2[C@@H]3CCC4=C[C@@H](OC(C)=O)CC[C@@H]4[C@H]3CC[C@@]21C	-4.34%
CN1CCN(c2ccc3[nH]c(-c4ccc5[nH]c(-c6ccc(O)cc6)nc5c4)nc3c2)CC1	59.1%
CC12CCC(C(Br)C1=O)C2(C)C (stereo not drawn)	0.07%
c1ccc2c(c1)CCC[C@H]2Nc1nc2ccccc2[nH]1	6.01%
Cc1cccc(CN2CCN(C(c3ccccc3)c3ccc(Cl)cc3)CC2)c1 (stereo not drawn)	27.5%
COc1ccc2nc(NC(=O)Nc3ccccc3)sc2c1	-7.23%
C#C[C@]1(O)CC[C@H]2[C@@H]3CCC4=CCCC[C@@H]4[C@H]3C(=C)C[C@@]21CC	5.09%
COc1ccc(CN2C(=O)C(=O)c3cc(OC(F)(F)F)ccc32)cc1	-16.4%
CN(c1nccc(=O)[nH]1)C1CCN(c2nc3ccccc3n2Cc2ccc(F)cc2)CC1	-7.93%
CC(=O)O[C@H]1CC[C@@]2(C)C(=CC[C@@H]3[C@@H]2CC[C@]2(C)C(c4cccnc4)=CC[C@@H]32)C1	-6.44%
Cc1ccc(NC(=O)c2ccc(CN3CCN(C)CC3)cc2)cc1Nc1nc(-c2cccnc2)cs1	-0.35%
C=C[C@@]1(C)CC(=O)[C@]2(O)[C@@]3(C)[C@@H](O)CCC(C)(C)[C@@H]3[C@H](OC(=O)CCN(C)C)[C@H](OC(C)=O)[C@@]2(C)O1	-6.58%
C[C@H](CS)C(=O)N1CCC[C@H]1C(=O)O	14.4%
Cc1cc2c(cc1C(F)(F)F)N(C(=O)Nc1ccc(Oc3cccnc3C)nc1)CC2	6.08%
O=C1C[C@@]2(C(=O)N1)C(=O)N(Cc1ccc(Br)cc1F)C(=O)c1cccn12	1.38%
CCCCCCCCCCCC(=O)O	-0.09%
Cc1ccc(CNc2ncnc3ccc(-c4ccc(CO)o4)cc23)o1	-2.14%
CC(C)(C(=O)c1cccnc1)c1cccnc1	-1.14%
Cc1nc2c(OCc3ccccc3)cccn2c1CC#N	-2.75%
CCOC1O[C@H]([C@@H](COCc2ccccc2)OCc2ccccc2)[C@H](OCc2ccccc2)[C@H]1O (stereo partly drawn)	-0.64%

Excerpt of the above (block 3):
Compound	viability
CCCCC(=O)O[C@H]1CC[C@H]2[C@@H]3CCc4cc(O)ccc4[C@H]3CC[C@]12C	104%
Cc1cc(/C=C/C#N)cc(C)c1Nc1ccnc(Nc2ccc(C#N)cc2)n1	54.2%
Cc1cc(-c2ccc(/N=N/c3ccc4c(S(=O)(=O)O)cc(S(=O)(=O)O)c(N)c4c3O)c(C)c2)ccc1/N=N/c1ccc2c(S(=O)(=O)O)cc(S(=O)(=O)O)c(N)c2c1O	101%
